Experimental data pooled from the literature.
Every numbered part comes from another study and shows a few of its results, in no order.

Block 1
Target: Centromere-binding protein 1, full length, N-terminal tag (CBF1, Saccharomyces cerevisiae, UniProt P17106, residues 1-351)
UniProt P17106, sequence (whole entry, looked up): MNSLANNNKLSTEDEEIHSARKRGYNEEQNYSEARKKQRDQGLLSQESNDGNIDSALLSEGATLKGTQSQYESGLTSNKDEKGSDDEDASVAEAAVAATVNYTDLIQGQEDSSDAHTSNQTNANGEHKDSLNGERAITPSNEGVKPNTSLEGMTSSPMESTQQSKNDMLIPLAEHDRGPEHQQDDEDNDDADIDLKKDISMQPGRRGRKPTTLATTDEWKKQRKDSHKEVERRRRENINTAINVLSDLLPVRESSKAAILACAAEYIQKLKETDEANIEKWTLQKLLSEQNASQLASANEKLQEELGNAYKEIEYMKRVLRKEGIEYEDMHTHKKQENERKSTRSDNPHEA
Method: protein-binding microarray
Form: double-stranded DNA, one strand shown
Sample: in vitro
Tested at: 0.8 µM
Notes: whole 60-bp probe, no competitor
Reading: higher = stronger binding
Endpoint: fluorescence intensity
Constant ends, left off below: … GTCTTGATTCGCTTGACGCTGCTG
GAAAATCTTCATAAATTCGTGACAAATTAGAATTAG: 589 a.u.
CTAGGATACTTCCGTCATCAGAAAGTAATTCACTTC: 507 a.u.
TGTACGAAGCTATGCCACGTGGGTATAGTAGTTAGG: 5100 a.u.
CTAGGACATTATAACAACGTGCAGATGGTGATGTTC: 674 a.u.
CCTAACTACTATACAGGTGAGACATAGCTTCGTACA: 528 a.u.
CTAACATGTGTTAATCACGCGTTGATACAATGTTTC: 1160 a.u.
GAAAATACAGTTCATCATGATCTGTGATCTAGCTAG: 579 a.u.
CCTAACTACTATATTTGCGTGCTATAGCTTCGTACA: 516 a.u.

Block 2
Substance: PhoQ, residues 284 288 289 292 302 303 ALVSVA
Method: Sort-seq
Measured: YFP reporter
Sample: E. coli
Notes: PhoQ-PhoP variant library
With: 10 µM Mg2+
Baseline: high Mg2+ state
Reading: higher = stronger signaling
Endpoint: fold induction
PhoP, residues 12 14 15 18 19 NYFRM (Escherichia coli, UniProt P23836): 11
PhoP, residues 12 14 15 18 19 QYFSL (Escherichia coli, UniProt P23836): 11.1
PhoP, residues 12 14 15 18 19 TQALL (Escherichia coli, UniProt P23836): 1.49

Block 3
Target: Max dimerization protein 1, bHLH-zipper, MAX partner unstated (MXD1, Homo sapiens, UniProt Q05195, residues 56-136)
Method: protein-binding microarray
Form: double-stranded DNA, one strand shown
Sample: in vitro
Tested at: not given
Notes: k-mer, scored over probes, only values ≥0.25
Reading: higher = stronger binding
Endpoint: E-score
Construct (chain): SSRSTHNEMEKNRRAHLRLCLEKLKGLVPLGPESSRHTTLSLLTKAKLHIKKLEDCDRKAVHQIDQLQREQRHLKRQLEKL
CATGTCCG: 0.335
CTCCTCCA: 0.263
CCACCTGG: 0.35
ATGCGTTC: 0.292
AGGCGTGG: 0.342
GCCCCACC: 0.283
CACGCGGA: 0.429

Block 4
Target: Interferon regulatory factor 7, full length, phosphomimetic (IRF7, Homo sapiens, UniProt Q92985, residues 1-503, S471D/S472D/S475D/S476D/S477D/S483D/S484D/S487D)
Method: protein-binding microarray
Form: double-stranded DNA, one strand shown
Sample: in vitro
Tested at: 2200 nM top
Notes: 60-bp whole probe
With: salmon DNA 0.4 mg/ml
Baseline: random background probes
Reading: higher = stronger binding
Endpoint: fitted relative affinity
Constant ends, left off below: GCCTAGCAC … GTCTTGATTCGCTTGACGCTGCTG
Target sequence (chain): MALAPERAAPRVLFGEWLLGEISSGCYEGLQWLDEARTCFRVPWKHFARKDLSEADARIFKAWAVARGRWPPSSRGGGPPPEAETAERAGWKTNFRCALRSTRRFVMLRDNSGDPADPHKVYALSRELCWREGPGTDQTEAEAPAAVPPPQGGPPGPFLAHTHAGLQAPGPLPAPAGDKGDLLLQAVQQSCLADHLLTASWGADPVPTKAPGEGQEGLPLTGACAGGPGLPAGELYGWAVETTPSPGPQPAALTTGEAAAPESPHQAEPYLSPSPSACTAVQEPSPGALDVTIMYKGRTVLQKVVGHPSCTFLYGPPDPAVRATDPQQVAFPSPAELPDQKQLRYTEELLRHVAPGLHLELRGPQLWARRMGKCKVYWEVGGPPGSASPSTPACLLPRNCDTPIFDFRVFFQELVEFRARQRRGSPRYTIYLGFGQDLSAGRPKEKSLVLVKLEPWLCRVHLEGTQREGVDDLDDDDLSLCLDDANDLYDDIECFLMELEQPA
TTACGTCTCCTACTGCTTTAGTGCTAG: 2.16 z-score
TCATGCTTTCTTTTTGCACTGTGCTAG: 4.72 z-score
GACGATATCGGGACTGGAGATGTGCTA: -0.294 z-score
TCAAAAATAGAAACTCGTACTGTGCTA: -0.636 z-score
TACGGACTGGACTTTCGGGACGTGCTA: 2.24 z-score
GACGATTTCAGTTCCTAGACGTGCTAG: 1.85 z-score
CACGGACTGCTTATCCTGACGTGCTAG: 0.246 z-score
GACGAACTGGGAACTGGAGACGTGCTA: -0.333 z-score

For quick reference, copied from above (block 3):
CTCCTCCA: 0.263
CCACCTGG: 0.35
